Published values gathered from unrelated publications.
Each line is one published result; not all experiments were run side by side. Values joined by “and” are separate records of one study, mostly repeats; a detail may differ. Numbers after ± are the reported error.

Sequences of proteins named here, by UniProt entry; tags and fusion partners are left off. A line that says so, or that is headed by a name, gives the form on record, which may keep a tag or linker. Residues count along the entry.
UniProt P37136, 32-614 limits assumed: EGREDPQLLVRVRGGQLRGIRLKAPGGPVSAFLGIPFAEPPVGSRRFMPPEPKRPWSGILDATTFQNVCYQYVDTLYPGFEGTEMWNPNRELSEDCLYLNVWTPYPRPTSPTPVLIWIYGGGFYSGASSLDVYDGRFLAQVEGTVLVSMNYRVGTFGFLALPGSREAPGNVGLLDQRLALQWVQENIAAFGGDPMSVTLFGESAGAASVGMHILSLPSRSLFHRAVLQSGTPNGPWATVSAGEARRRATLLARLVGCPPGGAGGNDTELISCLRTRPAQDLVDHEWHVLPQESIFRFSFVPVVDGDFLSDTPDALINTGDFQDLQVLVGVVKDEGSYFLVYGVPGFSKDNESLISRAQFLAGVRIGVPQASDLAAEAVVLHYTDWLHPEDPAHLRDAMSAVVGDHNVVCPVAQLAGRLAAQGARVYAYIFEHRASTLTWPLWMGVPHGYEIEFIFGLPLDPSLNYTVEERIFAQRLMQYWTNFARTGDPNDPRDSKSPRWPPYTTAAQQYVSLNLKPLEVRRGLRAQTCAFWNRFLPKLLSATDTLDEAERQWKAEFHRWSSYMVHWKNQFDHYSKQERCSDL
UniProt P08510, 1-655 with tags or gaps DEL6-46: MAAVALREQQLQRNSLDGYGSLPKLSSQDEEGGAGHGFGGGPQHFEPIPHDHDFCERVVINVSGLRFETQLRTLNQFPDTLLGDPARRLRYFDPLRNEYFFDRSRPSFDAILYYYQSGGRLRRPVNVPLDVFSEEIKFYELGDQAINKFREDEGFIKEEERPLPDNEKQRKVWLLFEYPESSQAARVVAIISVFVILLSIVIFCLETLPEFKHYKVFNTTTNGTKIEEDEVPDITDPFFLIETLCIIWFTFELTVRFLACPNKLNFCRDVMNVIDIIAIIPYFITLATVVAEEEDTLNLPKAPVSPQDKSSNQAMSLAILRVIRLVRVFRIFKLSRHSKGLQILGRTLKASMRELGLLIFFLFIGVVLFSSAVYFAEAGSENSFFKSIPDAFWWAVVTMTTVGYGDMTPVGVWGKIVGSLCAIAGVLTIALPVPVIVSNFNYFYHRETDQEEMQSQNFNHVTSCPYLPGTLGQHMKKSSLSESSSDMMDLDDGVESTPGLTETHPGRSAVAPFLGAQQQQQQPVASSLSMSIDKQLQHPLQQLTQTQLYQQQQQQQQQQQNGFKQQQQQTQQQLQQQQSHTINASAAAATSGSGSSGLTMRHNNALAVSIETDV
UniProt Q16881, 151-649 limits assumed: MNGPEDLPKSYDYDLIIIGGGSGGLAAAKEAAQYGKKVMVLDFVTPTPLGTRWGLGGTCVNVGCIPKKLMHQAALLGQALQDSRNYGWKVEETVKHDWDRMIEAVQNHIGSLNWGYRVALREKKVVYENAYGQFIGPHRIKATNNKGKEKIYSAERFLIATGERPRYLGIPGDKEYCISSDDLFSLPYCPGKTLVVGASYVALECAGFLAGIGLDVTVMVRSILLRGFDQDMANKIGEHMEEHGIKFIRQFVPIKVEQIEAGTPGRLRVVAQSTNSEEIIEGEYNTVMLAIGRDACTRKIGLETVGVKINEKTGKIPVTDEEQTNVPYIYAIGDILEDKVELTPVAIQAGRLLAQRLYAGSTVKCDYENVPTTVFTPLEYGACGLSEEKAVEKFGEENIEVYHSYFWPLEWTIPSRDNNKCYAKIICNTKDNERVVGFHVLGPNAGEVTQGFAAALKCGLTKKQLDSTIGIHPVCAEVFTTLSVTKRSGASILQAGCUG

For CC[C@H](C)[C@H](NC(=O)[C@H](C)NC(=O)[C@H](CCC(=O)O)NC(=O)[C@H](CCC(=O)O)NC(=O)[C@H](CC(C)C)NC(=O)[C@H](CCCCN)NC(=O)[C@H](CCCCN)NC(=O)[C@H](CCSC)NC(=O)[C@H](CCC(=O)O)NC(=O)[C@H](Cc1ccc(O)cc1)NC(=O)[C@H](CCC(=O)O)NC(=O)[C@H](CC(C)C)NC(=O)[C@H](CC(=O)O)NC(=O)[C@H](CC(C)C)NC(=O)[C@H](Cc1ccccc1)NC(=O)[C@H](Cc1ccccc1)NC(=O)[C@@H](NC(=O)[C@H](CC(N)=O)NC(=O)[C@@H](NC(=O)[C@H](CCC(N)=O)NC(=O)[C@H](CC(=O)O)NC(=O)[C@H](CC(C)C)NC(=O)[C@@H](N)CO)[C@@H](C)CC)C(C)C)C(=O)N[C@@H](CCCCN)C(=O)N[C@@H](CCCCN)C(=O)N[C@@H](CC(C)C)C(=O)N[C@@H](CCC(=O)O)C(=O)N[C@@H](CCC(=O)O)C(=O)N[C@H](C(=O)N[C@@H](Cc1ccc(O)cc1)C(=O)N[C@H](C(=O)N[C@@H](CC(=O)O)C(=O)N[C@@H](CC(C)C)C(=O)N[C@@H](CCCCN)C(=O)N[C@@H](CCC(=O)O)C(=O)N[C@@H](CC(C)C)C(=O)O)[C@@H](C)CC)[C@@H](C)O, the IC50 was 614 nM (SARS-CoV-2 Beta pseudovirus; pseudovirus infection, inhibitor, luciferase; Caco-2; 24 h, dual mutations).
For CCOP(=O)(OCC)ON1C(=O)c2cccc3cccc(c23)C1=O, the IC50 was 32 nM (Acetylcholinesterase (Ache, Rattus norvegicus, UniProt P37136); enzyme activity, inhibitor; rat, postnatal day 70, rat serum; together with: carboxylesterase and BChE inhibitors).
For O=C(c1cccs1)N1CCCC2(C1)Nc1ccccc1N=C2NC1CCCC1 (centres unmarked), the CC50 was 39 µM (HepG2; cell viability, CellTiter-Glo; 72 h).
Cc1ccc(S(=O)(=O)Nc2cccc(C(=O)NC3CCN(c4ncnc5[nH]cnc45)CC3)c2)cc1Cl has an IC50 of 2320 nM (SARS-CoV-2; viral infection; Wuhan-Hu-1).
The IC50 of CC[C@H](C)[C@H](NC(=O)[C@H](C)NC(=O)[C@H](CCC(=O)O)NC(=O)[C@H](CCC(=O)O)NC(=O)[C@H](CC(C)C)NC(=O)[C@H](CCCCN)NC(=O)[C@H](CCCCN)NC(=O)[C@H](CCSC)NC(=O)[C@H](CCC(=O)O)NC(=O)[C@H](Cc1ccc(O)cc1)NC(=O)[C@H](CCC(=O)O)NC(=O)[C@H](CC(C)C)NC(=O)[C@H](CC(=O)O)NC(=O)[C@H](CC(C)C)NC(=O)[C@H](Cc1ccccc1)NC(=O)[C@H](Cc1ccccc1)NC(=O)[C@@H](NC(=O)[C@H](CC(N)=O)NC(=O)[C@@H](NC(=O)[C@H](CCC(N)=O)NC(=O)[C@H](CC(=O)O)NC(=O)[C@H](CC(C)C)NC(=O)[C@@H](N)CO)[C@@H](C)CC)C(C)C)C(=O)N[C@@H](CCCCN)C(=O)N[C@@H](CCCCN)C(=O)N[C@@H](CC(C)C)C(=O)N[C@@H](CCC(=O)O)C(=O)N[C@@H](CCC(=O)O)C(=O)N[C@@H](CO)C(=O)N[C@@H](Cc1ccc(O)cc1)C(=O)N[C@H](C(=O)N[C@@H](CC(=O)O)C(=O)N[C@@H](CC(C)C)C(=O)N[C@@H](CCCCN)C(=O)N[C@@H](CCC(=O)O)C(=O)N[C@@H](CC(C)C)C(=O)O)[C@@H](C)CC is reported as 41.8 nM (SARS-CoV-2 JN.1 pseudovirus; pseudovirus infection, inhibitor, luciferase; Caco-2; 24 h).
CC#Cc1ccc2c(=O)[nH]nc(Cc3ccc(F)c(C(=O)N4CCN(c5ccc(C#N)cn5)CC4)c3)c2c1: “time to maximum” ~16 h (CT26; western blot, measured: PARP7 protein; 0.3 µM).
Cc1ccc(S(=O)(=O)Nc2cccc(C(=O)NC3CCN(c4ncnc5[nH]cnc45)CC3)c2)cc1 gave an inhibition of 9.21% and 15.9% (monkeypox virus E1/E12; 0.01221 µM).
CC[C@H](C)[C@@H]1NC(=O)[C@H](CCCNC(=N)N)NC(=O)[C@@H](N)CSSC[C@@H]2NC(=O)[C@@H]3CSSC[C@@H](C(=O)N[C@H](C(=O)O)C(C)C)NC(=O)[C@H](CCCCN)NC(=O)[C@H](CC(N)=O)NC(=O)[C@H](Cc4ccccc4)NC(=O)[C@H](CCCNC(=N)N)NC(=O)[C@H](CC(N)=O)NC(=O)[C@H](CSSC[C@H](NC(=O)[C@H](CCCCN)NC(=O)[C@H](CCC(N)=O)NC(=O)[C@H](CC(N)=O)NC(=O)[C@@H]4C[C@@H](O)CN4C1=O)C(=O)N[C@@H](Cc1ccccc1)C(=O)N[C@@H](CCC(N)=O)C(=O)N[C@@H](Cc1c[nH]cn1)C(=O)N[C@@H](CC(C)C)C(=O)N[C@@H](CC(=O)O)C(=O)N[C@@H](CC(=O)O)C(=O)N3)NC(=O)[C@H](CCCCN)NC(=O)[C@H](CCCNC(=N)N)NC(=O)[C@H](CO)NC2=O gave a koff of 12 ± 1 s⁻¹ (Sh (Drosophila melanogaster, UniProt P08510, del6-46); potassium current, outside-out patch clamp; 500 nM, pulse application, zero voltage, internal K 15, together with: 1 mM TEA).
The IC50 of CC[C@H](C)[C@H](NC(=O)[C@H](C)NC(=O)[C@H](CCC(=O)O)NC(=O)[C@H](CCC(=O)O)NC(=O)[C@H](CC(C)C)NC(=O)[C@H](CCCCN)NC(=O)[C@H](CCCCN)NC(=O)[C@H](CCSC)NC(=O)[C@H](CCC(=O)O)NC(=O)[C@H](Cc1ccc(O)cc1)NC(=O)[C@H](CCC(=O)O)NC(=O)[C@H](CC(C)C)NC(=O)[C@H](CC(=O)O)NC(=O)[C@H](CC(C)C)NC(=O)[C@H](Cc1ccccc1)NC(=O)[C@@H](NC(=O)[C@@H](NC(=O)[C@H](CC(N)=O)NC(=O)[C@@H](NC(=O)[C@H](CCC(N)=O)NC(=O)[C@H](CC(=O)O)NC(=O)[C@H](CC(C)C)NC(=O)[C@@H](N)CO)[C@@H](C)CC)C(C)C)[C@@H](C)O)C(=O)N[C@@H](CCCCN)C(=O)N[C@@H](CCCCN)C(=O)N[C@@H](CC(C)C)C(=O)N[C@@H](CCC(=O)O)C(=O)N[C@@H](CCC(=O)O)C(=O)N[C@@H](C)C(=O)N[C@@H](Cc1ccc(O)cc1)C(=O)N[C@H](C(=O)N[C@@H](CC(=O)O)C(=O)N[C@@H](CC(C)C)C(=O)N[C@@H](CCCCN)C(=O)N[C@@H](CCC(=O)O)C(=O)N[C@@H](CC(C)C)C(=O)O)[C@@H](C)CC is reported as 1390 nM (SARS-CoV-2 JN.1 pseudovirus; pseudovirus infection, inhibitor, luciferase; Caco-2; 24 h).
O=C(CSc1ccccc1)N1CCCC2(C1)Nc1cccnc1N=C2NC1CCCC1 (centres unmarked) has a CC50 of > 70 µM (HEK293; cell viability, CellTiter-Glo; 72 h).
The Emax of CC(C)[C@H]1CC[C@@H](N2CCC3(CC2)C(=O)NCN3c2ccccc2)CC1 is reported as 100 % inhibition (twitch contraction, electrical stimulation; mouse, mouse vas deferens).
O=C(NC1CCN(c2ncnc3[nH]cnc23)CC1)c1cccc(S(=O)(=O)Nc2ccc(Cl)cc2)c1 gave an IC50 of 1400 nM (SARS-CoV-2; viral infection; Wuhan-Hu-1).
Nc1ccc([As]=O)cc1 (centres unmarked) has an IC50 of 3670 ± 100 nM (NCM460; cell viability, MTS).
O=C(NC1CCN(c2ncnc3[nH]cnc23)CC1)c1cccc(NS(=O)(=O)c2ccc(Cl)cc2)c1 gave a relative infection of 27.4% (SARS-CoV-2; Wuhan-Hu-1; 7.407 µM; baseline: untreated infected cells).
With CC(=O)Oc1ccc(CON2C(=O)CCC2=O)cc1 the IC50 was 710 ± 30 nM (Thioredoxin reductase 1, cytoplasmic (TXNRD1, Homo sapiens, UniProt Q16881); enzyme activity, inhibitor).
Under “reduction in viral RNA”, NCc1ccc(-c2ncc(OCC3CCNCC3)nc2-c2ccc(-c3ccoc3)cc2)cc1 is recorded as 98% (Zika virus; ZIKV-FLR, C57BL/6 mice, interferon receptor knockout, brain; intraperitoneal, 15 mg/kg every 12 h, 24 h, started 1 h before infection).
With Cc1cc(C(=O)N[C@@H](Cc2cccc3ccccc23)C(=O)N[C@@H](CC(C)C)C(=O)N[C@H](C=O)C[C@@H]2CCCNC2=O)no1 the EC50 was 10 ± 10 nM (Norovirus; viral replication, RT-qPCR; norovirus replicon cells; four days).
For CS(=O)(=O)Cc1onc(-c2cccc(Cl)c2)c1-c1ccnc(N[C@@H]2CCN(C(=O)c3nccs3)C2)n1, activity class read “active” (Plasmodium falciparum; parasite growth; 3D7 A10; concentration not given, asexual blood stage).
For COc1ccc(S(=O)(=O)Nc2cccc(C(=O)NC3CCN(c4ncnc5[nH]cnc45)CC3)c2)cc1, the relative infection was 70% (SARS-CoV-2; Wuhan-Hu-1; 0.09145 µM; baseline: untreated infected cells).
The IC50 of CC[C@H](C)[C@H](NC(=O)[C@H](C)NC(=O)[C@H](CCC(=O)O)NC(=O)[C@H](CCC(=O)O)NC(=O)[C@H](CC(C)C)NC(=O)[C@H](CCCCN)NC(=O)[C@H](CCCCN)NC(=O)[C@H](CCSC)NC(=O)[C@H](CCC(=O)O)NC(=O)[C@H](Cc1ccc(O)cc1)NC(=O)[C@H](CCC(=O)O)NC(=O)[C@H](CC(C)C)NC(=O)[C@H](CC(=O)O)NC(=O)[C@H](CC(C)C)NC(=O)[C@H](Cc1ccccc1)NC(=O)[C@@H](NC(=O)[C@@H](NC(=O)[C@H](CC(N)=O)NC(=O)[C@@H](NC(=O)[C@H](CCC(N)=O)NC(=O)[C@H](CC(=O)O)NC(=O)[C@H](CC(C)C)NC(=O)[C@@H](N)CO)[C@@H](C)CC)C(C)C)[C@@H](C)O)C(=O)N[C@@H](CCCCN)C(=O)N[C@@H](CCCCN)C(=O)N[C@@H](CC(C)C)C(=O)N[C@@H](CCC(=O)O)C(=O)N[C@@H](CCC(=O)O)C(=O)N[C@H](C(=O)N[C@@H](Cc1ccc(O)cc1)C(=O)N[C@H](C(=O)N[C@@H](CC(=O)O)C(=O)N[C@@H](CC(C)C)C(=O)N[C@@H](CCCCN)C(=O)N[C@@H](CCC(=O)O)C(=O)N[C@@H](CC(C)C)C(=O)O)[C@@H](C)CC)[C@@H](C)O is reported as 1570 nM (SARS-CoV-2 Beta pseudovirus; pseudovirus infection, inhibitor, luciferase; Caco-2; 24 h).

For quick reference, copied from above:
The Emax of CC(C)[C@H]1CC[C@@H](N2CCC3(CC2)C(=O)NCN3c2ccccc2)CC1 is reported as 100 % inhibition (twitch contraction, electrical stimulation; mouse, mouse vas deferens).
With CC(=O)Oc1ccc(CON2C(=O)CCC2=O)cc1 the IC50 was 710 ± 30 nM (Thioredoxin reductase 1, cytoplasmic (TXNRD1, Homo sapiens, UniProt Q16881); enzyme activity, inhibitor).
